Results gathered from unrelated publications.
Each line is one published result; not all experiments were run side by side. ± marks the error that the study gave.

Compound	target or system	assay	setting	measurement	result
[Cl-].[Cl-].[Ru+2].c1cc(-c2ccc3cccnc3n2)nc(-c2ccc3cccnc3n2)c1.c1ccc2cc3nc4c5cccnc5c5ncccc5c4nc3cc2c1	A-375	cytotoxicity, resazurin	dark	EC50	68.1 µM
CC(C)C[C@H](NC(=O)[C@H](Cc1ccccc1)NC(=O)[C@H](CCCNC(=N)N)NC(=O)[C@H](C)N)B(O)O	MM1.S cells	cell viability, CellTiter-Glo	single agent	EC50	0.181 µM
O=C(N/N=C/c1cc[n+](CC2CC2)c2ccccc12)c1cncc(C(=O)N/N=C/c2cc[n+](CC3CC3)c3ccccc23)n1	MYC parallel G4 DNA	FRET melting	1 µM, DNA 0.2 µM	ΔTm	11.2 ± 0.3 °C
CN1CC[C@@H](COc2cnc(C#N)cc2-c2ccn3nc(NC(=O)C4CC4)cc3c2)C1	THP-1	nuclear translocation, measured: CRTC3	representative triplicate curve	EC50	0.94 µM
C[n+]1ccc(/C=N/NC(=O)c2cc(C(=O)N/N=C/c3cc[n+](C)cc3)ncn2)cc1	hp2 hairpin duplex DNA	FRET melting	1 µM, added: ds26 10 µM	ΔTm	0 ± 0.3 °C
[Cl-].[Cl-].[Ru+2].c1ccc(-c2ccccn2)nc1.c1ccc(-c2ccccn2)nc1.c1ccc2cc3nc4c5cccnc5c5ncccc5c4nc3cc2c1	SK-MEL-28	cell growth or viability, resazurin	dark	EC50	114 µM
CC(C)(C)c1cc(-c2ccc3cccnc3n2)nc(-c2ccc3cccnc3n2)c1.[Cl-].[Cl-].[Ru+2].c1cnc2c(c1)ccc1cccnc12	A-375	resazurin	added: light 733 nm, 9 mW, 100 J/cm2	EC50	214 ± 6 µM
COc1ccc(CC[C@H]2OC(=O)[C@@H]3CCCCN3C(=O)C(=O)C(C)(C)COC(=O)/C=C/CCN(C)C(=O)[C@H](CC(C)C)N(C)C(=O)[C@@H]3CCCN3C(=O)[C@H](Cc3ccccc3)N(C)C(=O)[C@H](c3ccccc3)NC(=O)CCC(=O)Nc3cccc2c3)cc1OC	Jurkat T cells, FKBP51 knock-out	[3H]-thymidine incorporation, inhibitor	3 h	EC50	0.0543 µM
Oc1cccc(-c2cccc(O)n2)n1.[Cl-].[Cl-].[Ru+2].c1ccc(-c2ccnc3c2ccc2c(-c4ccccc4)ccnc23)cc1.c1ccc(-c2ccnc3c2ccc2c(-c4ccccc4)ccnc23)cc1	MCF-10A	CCK-8 viability	dark	EC50	3.9 µM
CC(C)(C)c1cc(-c2ccc3cc4ccccc4nc3n2)nc(-c2ccc3cc4ccccc4nc3n2)c1.[Cl-].[Cl-].[Ru+2].c1ccc2cc3nc4c5cccnc5c5ncccc5c4nc3cc2c1	A-375	resazurin	added: light 733 nm, 9 mW, 100 J/cm2	EC50	49.6 µM
C=C(NC(=O)c1csc(-c2cccnc2)n1)C(=O)NC(=C)C(=O)OC	ES-2	cell growth or viability		EC50	5.3 µM
CCCNC(=O)[C@H]1O[C@@H]1C(=O)N[C@H](C(=O)N1CCC[C@H]1C(=O)OCC1=C2C(C)=CC(C)=[N+]2[B-](C)(C)n2c(C)cc(C)c21)[C@@H](C)CC	MCF-10A	cell viability, MTT	concentration not given, 72 h, irradiated 15 min up to 470 nm	EC50	3.5 ± 1.3 µM

Some of these lines once more:
Compound	target or system	assay	setting	measurement	result
[Cl-].[Cl-].[Ru+2].c1cc(-c2ccc3cccnc3n2)nc(-c2ccc3cccnc3n2)c1.c1ccc2cc3nc4c5cccnc5c5ncccc5c4nc3cc2c1	A-375	cytotoxicity, resazurin	dark	EC50	68.1 µM
CC(C)C[C@H](NC(=O)[C@H](Cc1ccccc1)NC(=O)[C@H](CCCNC(=N)N)NC(=O)[C@H](C)N)B(O)O	MM1.S cells	cell viability, CellTiter-Glo	single agent	EC50	0.181 µM
